Experimental data pooled from the literature.
A part holds a random share of what one study measured.

Block 1
Target: RNA binding protein fox-1 homolog 2, RRM domain, GST-SBP tag (RBFOX2, Homo sapiens, UniProt O43251-10, residues 100-194)
Method: RNA Bind-n-Seq
Molecule type: RNA
Matrix: in vitro
Tested at: 365 nM
Notes: natural RNA segment, single round, ends assumed
Relative to: no-protein control
Direction: higher = stronger binding
Construct (chain): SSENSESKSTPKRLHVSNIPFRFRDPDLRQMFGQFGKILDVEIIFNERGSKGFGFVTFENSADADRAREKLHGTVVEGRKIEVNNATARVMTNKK
Sequence | RBNS enrichment (R)
GGGAGUUCUACAGUCCGACGAUCUCCUGAGAGGGGAGGCCUGGUGGCUUAGCCUGGGCAGGUCGUGUCUCCUCCUGACCCCAGUGGCUGCGGUGAGGGGAACCACCCUCCCUUGCUGCACCAGUGGCCAUUAGUGGAAUUCUCGGGUGCCAA | 0.277
GGGAGUUCUACAGUCCGACGAUCCAUAUGCCCCUGUGCCCAGUGGUUGAUGAUACCACCACCACCUGCCUACCCAUGGGCCCAAGUUUCUGUGGCUCAUUACAGGGCAUCUGACCCCUGCCACCCAGCAUAGAUGGAAUUCUCGGGUGCCAA | 0.328
GGGAGUUCUACAGUCCGACGAUCGUAUUUUGGUAUAGAGUAGGACCCAAGCUUCAUGCAUCUGUAUUUGGUAUAUGUCAAUGACGUGGAGUGAAAUUUGCUAUUAGAUCCUGGAGGCAAAUGGGUUGUACAAGUGGAAUUCUCGGGUGCCAA | 1.42
GGGAGUUCUACAGUCCGACGAUCAUGGUACCCAGAGUGGGCUGUGGUGGUCUGUGAGGUAACCAAGCCCAUGUCUGGCAGAUGAGGGCUGUUUGCCCUUUUCUGUGCCAAUGAGUGCCCUUUUCUGGCACUCUUGGAAUUCUCGGGUGCCAA | 0.268

Block 2
Target: Histone acetyltransferase KAT6A, both winged helices, GST fusion (KAT6A, Homo sapiens, UniProt Q92794, residues 1-181)
Method: protein binding microarray
Molecule type: double-stranded DNA, one strand shown
Matrix: in vitro
Tested at: not given
Notes: 8-mer, flanks averaged, mean of 2 arrays, mostly near background
Relative to: not given
Direction: higher = stronger binding
Construct (chain): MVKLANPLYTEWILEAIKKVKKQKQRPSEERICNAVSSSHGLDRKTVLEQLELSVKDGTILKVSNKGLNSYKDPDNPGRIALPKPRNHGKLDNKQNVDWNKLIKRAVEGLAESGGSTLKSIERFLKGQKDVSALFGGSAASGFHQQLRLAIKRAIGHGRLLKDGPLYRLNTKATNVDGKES
Sequence | E-score
GTCTACCA | -0.248
ACGTCGCA | 0.113
ATTTAATA | -0.0618
CTGCCTAA | -0.237
CAAGGAGC | -0.0593
CGAGGCAA | -0.0887

Block 3
Target: Sal-like protein 4, full length isoform A (SALL4, Homo sapiens, UniProt Q9UJQ4, residues 1-1053)
UniProt Q9UJQ4, sequence (whole entry, looked up): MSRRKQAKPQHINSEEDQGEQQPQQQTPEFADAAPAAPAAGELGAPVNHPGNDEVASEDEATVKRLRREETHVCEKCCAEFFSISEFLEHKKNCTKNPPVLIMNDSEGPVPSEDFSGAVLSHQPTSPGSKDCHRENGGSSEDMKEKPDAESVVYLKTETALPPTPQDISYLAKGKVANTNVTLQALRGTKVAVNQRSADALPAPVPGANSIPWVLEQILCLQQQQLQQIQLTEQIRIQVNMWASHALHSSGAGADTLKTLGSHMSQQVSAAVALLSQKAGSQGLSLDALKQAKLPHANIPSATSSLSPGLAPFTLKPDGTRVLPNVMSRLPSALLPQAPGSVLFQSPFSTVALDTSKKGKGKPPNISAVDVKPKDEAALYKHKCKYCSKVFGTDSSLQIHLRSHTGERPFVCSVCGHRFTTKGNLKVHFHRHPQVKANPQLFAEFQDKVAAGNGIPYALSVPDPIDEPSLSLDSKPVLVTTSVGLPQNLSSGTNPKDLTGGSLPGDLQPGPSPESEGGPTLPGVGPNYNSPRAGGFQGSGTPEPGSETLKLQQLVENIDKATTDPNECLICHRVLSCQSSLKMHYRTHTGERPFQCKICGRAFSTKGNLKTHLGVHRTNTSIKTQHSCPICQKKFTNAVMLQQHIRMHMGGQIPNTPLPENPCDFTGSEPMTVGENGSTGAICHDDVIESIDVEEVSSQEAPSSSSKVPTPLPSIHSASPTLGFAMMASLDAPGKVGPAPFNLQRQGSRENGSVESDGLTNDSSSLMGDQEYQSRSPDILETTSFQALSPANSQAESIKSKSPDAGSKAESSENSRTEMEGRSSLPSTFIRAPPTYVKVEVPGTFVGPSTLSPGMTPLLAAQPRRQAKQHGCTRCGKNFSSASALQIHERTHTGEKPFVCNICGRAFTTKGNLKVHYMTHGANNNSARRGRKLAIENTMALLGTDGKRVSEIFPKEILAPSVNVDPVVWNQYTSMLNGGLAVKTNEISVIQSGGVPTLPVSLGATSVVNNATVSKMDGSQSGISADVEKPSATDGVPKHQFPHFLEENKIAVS
Method: universal PBM
Molecule type: double-stranded DNA, one strand shown
Matrix: in vitro
Tested at: 600 nM
Notes: 8-mer, flanks averaged, mean of replicates
Direction: higher = stronger binding
Sequence | E-score
AGGCGCAC | -0.245
GAGCAACA | -0.0526
AGCTCATG | -0.0644
AGATTACG | 0.0952
TGCTGTAA | 0.238

Single results of other studies
Substance | target | test | system | setting | scale | measurement | result
PhoQ, residues 284 288 289 292 302 303 SASVAL | PhoP, residues 12 14 15 18 19 GQAIL (Escherichia coli, UniProt P23836) | Sort-seq, item: YFP reporter | E. coli | PhoQ-PhoP variant library, together with: 10 µM Mg2+ | relative to: high Mg2+ state, higher = stronger signaling | fold induction | 1.72
